{"data": "Assay results pooled from the literature", "DPP4": "Dipeptidyl peptidase 4 (DPP4, Homo sapiens, UniProt P27487)", "blaNDM-1": "Metallo-beta-lactamase type 2 (blaNDM-1, Klebsiella pneumoniae, UniProt C7C422)", "note": "Compare with care: the assays were run in different laboratories. Several values in a cell are separate wells, animals, samples, runs or records. ± marks the error that the study gave.", "chain of UniProt P27487 (whole entry, looked up)": "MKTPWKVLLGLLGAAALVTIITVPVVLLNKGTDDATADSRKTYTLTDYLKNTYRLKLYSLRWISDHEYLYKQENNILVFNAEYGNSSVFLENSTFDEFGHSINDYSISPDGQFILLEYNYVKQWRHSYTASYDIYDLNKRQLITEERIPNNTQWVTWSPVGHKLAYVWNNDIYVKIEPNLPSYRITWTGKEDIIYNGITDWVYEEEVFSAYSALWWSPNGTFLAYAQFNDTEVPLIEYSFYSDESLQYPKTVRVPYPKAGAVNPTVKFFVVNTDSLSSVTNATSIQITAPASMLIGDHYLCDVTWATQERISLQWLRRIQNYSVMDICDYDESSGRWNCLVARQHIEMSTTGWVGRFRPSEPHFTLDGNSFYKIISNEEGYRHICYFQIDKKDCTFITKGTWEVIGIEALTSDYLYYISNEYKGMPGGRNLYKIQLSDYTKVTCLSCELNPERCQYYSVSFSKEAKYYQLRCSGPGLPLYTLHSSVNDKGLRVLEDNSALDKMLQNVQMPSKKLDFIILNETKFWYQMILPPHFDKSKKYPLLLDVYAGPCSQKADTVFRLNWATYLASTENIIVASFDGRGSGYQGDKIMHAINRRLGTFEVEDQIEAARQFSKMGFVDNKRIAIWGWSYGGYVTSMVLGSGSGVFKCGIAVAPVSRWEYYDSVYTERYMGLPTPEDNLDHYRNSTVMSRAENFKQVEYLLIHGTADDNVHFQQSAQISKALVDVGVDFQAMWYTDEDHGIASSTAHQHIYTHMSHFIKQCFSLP", "chain of UniProt P50391 (whole entry, looked up)": "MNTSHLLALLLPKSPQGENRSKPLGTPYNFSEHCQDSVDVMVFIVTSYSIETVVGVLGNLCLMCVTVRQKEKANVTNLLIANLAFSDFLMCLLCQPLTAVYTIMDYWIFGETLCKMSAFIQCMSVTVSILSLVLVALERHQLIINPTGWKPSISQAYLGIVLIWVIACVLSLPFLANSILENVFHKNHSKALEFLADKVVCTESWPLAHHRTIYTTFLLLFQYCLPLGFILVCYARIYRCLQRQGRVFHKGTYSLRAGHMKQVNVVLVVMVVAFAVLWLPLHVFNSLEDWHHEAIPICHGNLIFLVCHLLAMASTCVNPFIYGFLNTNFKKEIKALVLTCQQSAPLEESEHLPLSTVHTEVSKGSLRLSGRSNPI", "chain of UniProt P41595 (whole entry, looked up)": "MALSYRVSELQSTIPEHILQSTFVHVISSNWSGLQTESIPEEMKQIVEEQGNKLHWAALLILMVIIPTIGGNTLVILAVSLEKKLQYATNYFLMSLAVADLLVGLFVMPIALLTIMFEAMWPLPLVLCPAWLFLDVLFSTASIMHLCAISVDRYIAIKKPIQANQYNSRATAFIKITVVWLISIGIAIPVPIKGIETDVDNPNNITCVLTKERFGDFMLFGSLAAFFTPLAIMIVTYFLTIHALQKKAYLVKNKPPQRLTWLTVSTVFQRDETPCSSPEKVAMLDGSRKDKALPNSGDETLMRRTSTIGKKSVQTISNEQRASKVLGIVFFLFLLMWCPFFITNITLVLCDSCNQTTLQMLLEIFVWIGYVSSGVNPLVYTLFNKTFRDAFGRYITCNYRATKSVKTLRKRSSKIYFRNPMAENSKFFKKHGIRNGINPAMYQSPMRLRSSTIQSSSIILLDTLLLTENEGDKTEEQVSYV", "chain of UniProt Q7Z5W3 (whole entry, looked up)": "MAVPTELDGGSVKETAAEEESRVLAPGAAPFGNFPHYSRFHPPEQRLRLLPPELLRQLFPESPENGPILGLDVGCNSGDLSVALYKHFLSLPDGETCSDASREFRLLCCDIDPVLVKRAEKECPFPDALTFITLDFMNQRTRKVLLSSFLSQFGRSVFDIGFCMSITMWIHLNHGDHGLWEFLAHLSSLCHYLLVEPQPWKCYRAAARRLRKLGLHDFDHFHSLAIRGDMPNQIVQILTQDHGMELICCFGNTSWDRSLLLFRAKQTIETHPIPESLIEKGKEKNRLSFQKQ", "chain of UniProt P47774 (whole entry, looked up)": "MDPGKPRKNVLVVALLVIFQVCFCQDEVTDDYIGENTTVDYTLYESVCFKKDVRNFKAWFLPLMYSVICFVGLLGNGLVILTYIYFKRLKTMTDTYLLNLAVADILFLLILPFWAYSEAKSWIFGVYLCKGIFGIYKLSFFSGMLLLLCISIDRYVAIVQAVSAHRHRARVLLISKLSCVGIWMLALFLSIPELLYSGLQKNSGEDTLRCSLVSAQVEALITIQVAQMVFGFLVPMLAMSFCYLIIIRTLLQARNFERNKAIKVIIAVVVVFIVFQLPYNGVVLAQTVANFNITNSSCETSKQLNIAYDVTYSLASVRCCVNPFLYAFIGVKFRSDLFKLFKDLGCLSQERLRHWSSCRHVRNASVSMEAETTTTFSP", "chain of UniProt P53350 (whole entry, looked up)": "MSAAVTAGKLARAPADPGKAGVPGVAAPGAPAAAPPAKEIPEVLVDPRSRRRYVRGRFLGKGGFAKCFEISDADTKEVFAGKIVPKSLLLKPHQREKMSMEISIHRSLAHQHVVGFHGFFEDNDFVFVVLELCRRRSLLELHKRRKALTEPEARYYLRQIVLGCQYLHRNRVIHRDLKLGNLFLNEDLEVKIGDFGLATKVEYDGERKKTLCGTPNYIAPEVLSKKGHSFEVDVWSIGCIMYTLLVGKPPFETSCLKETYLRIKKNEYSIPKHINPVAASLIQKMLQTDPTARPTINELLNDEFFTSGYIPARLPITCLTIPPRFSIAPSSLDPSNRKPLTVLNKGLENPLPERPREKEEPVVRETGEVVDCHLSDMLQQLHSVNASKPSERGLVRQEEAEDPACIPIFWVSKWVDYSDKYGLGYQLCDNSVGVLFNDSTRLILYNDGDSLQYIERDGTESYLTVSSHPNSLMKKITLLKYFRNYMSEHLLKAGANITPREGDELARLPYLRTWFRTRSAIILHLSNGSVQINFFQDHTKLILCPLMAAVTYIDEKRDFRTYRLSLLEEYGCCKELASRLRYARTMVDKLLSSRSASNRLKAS", "chain of UniProt P26718 (whole entry, looked up)": "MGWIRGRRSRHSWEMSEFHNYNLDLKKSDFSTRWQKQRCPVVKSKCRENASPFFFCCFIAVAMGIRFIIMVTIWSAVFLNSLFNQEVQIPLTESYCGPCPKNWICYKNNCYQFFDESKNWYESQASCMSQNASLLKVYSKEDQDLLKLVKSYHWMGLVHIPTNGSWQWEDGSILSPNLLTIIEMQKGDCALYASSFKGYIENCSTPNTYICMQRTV", "chain of UniProt P30101 (whole entry, looked up)": "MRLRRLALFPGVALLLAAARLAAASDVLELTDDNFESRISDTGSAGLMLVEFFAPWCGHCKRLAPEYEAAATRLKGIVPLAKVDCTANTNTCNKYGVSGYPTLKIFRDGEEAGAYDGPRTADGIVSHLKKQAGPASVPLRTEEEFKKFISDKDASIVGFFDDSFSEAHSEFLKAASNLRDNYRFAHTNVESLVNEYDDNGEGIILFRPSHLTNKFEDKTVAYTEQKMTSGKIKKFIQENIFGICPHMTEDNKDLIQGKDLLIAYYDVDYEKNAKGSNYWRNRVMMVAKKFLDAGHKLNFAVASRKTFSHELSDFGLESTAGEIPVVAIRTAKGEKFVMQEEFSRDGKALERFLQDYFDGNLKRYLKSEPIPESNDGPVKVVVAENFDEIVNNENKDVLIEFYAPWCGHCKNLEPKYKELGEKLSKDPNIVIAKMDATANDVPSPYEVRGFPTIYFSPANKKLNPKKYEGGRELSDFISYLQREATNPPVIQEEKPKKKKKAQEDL", "chain of UniProt P01901 (whole entry, looked up)": "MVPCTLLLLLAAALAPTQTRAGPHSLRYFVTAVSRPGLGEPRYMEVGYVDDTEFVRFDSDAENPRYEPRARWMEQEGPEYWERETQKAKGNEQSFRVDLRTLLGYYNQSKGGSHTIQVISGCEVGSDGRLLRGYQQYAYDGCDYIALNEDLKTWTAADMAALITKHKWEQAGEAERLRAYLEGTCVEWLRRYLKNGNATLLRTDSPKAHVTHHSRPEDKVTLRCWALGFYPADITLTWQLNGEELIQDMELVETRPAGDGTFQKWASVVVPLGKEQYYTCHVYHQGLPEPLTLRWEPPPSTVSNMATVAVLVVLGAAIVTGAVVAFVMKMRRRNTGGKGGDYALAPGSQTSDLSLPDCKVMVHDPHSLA", "chain of UniProt P33261 (whole entry, looked up)": "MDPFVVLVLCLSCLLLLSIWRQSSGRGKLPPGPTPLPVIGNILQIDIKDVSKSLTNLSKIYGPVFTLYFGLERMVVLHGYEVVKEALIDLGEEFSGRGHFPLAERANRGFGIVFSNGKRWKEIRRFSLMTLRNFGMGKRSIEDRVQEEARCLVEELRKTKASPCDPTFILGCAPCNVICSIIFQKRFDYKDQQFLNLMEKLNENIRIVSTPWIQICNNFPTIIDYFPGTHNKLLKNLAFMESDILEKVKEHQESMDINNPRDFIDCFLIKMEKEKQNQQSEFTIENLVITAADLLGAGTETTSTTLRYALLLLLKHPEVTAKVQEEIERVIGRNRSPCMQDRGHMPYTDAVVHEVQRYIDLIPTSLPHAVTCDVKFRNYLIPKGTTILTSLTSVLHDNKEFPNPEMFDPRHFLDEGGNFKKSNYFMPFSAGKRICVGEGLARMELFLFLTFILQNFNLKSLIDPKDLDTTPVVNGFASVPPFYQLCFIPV", "chain of UniProt P40261 (whole entry, looked up)": "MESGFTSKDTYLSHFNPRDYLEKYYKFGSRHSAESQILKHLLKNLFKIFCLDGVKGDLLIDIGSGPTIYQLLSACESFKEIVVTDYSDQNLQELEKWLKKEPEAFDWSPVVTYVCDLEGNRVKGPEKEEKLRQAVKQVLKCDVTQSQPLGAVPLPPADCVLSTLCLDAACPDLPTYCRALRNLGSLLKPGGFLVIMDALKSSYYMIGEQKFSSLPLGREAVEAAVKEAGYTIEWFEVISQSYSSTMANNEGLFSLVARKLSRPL"}
{"SMILES": "C[C@H](CC(=O)C[C@@H](C)[C@H]1C[C@H](O)[C@@]2(C)C3=C(C(=O)C[C@]12C)[C@@]1(C)CCC(=O)C(C)(C)[C@@H]1C[C@@H]3O)C(=O)O", "target": "DPP4", "assay": "enzyme activity, inhibitor", "IC50": "81.9 µM"}
{"SMILES": "CC[C@H](C)[C@H](NC(=O)[C@H](CC(C)C)NC(=O)[C@@H]1CCCN1C(=O)[C@H](CO)NC(=O)[C@@H](N)CC(C)C)C(=O)N[C@@H](Cc1ccccc1)C(=O)N[C@H](C(=O)N[C@H](C(=O)N[C@H](C(=O)N1CCC[C@H]1C(=O)N[C@@H](CC(=O)O)C(=O)N[C@H](C(=O)O)[C@@H](C)O)[C@@H](C)O)[C@@H](C)O)C(C)C", "target": "C-C chemokine receptor type 7, with CCL19 (Ccr7, Mus musculus, UniProt P47774)", "assay": "ligand binding, inhibitor, flow cytometry", "test system": "B16 expressing CCR7", "conditions": "4 °C, together with: CCL19", "IC50": "176 ± 15.6 µM"}
{"SMILES": "C[C@H]1NC(=O)C[C@@H](C(=O)O)NC(=O)C[C@@H](C(=O)O)NC(=O)[C@H](Cc2ccccc2)N(C)C(=O)[C@H](Cc2c[nH]cn2)NC1=O", "target": "Endochitinase B1 (Aspergillus fumigatus, UniProt Q873X9)", "assay": "enzyme activity, inhibitor, fluorometric", "conditions": "10 min, pH 5.5, 37 °C, together with: 20 µM 4-MU-chitobiose", "IC50": "> 1000 µM"}
{"SMILES": "CC(C)C[C@H](NC(=O)[C@H](C)NC(=O)[C@H](CC(N)=O)NC(=O)[C@H](CCC(=O)O)NC(=O)[C@@H](N)CCCCN)C(=O)N[C@@H](CC(C)C)C(=O)N[C@@H](CCCNC(=N)N)C(=O)N[C@@H](Cc1ccc(O)cc1)C(=O)N[C@@H](CC(C)C)C(=O)N[C@@H](CC(C)C)C(=O)N[C@@H](CC(=O)O)C(=O)N[C@@H](CCCCN)C(=O)N[C@@H](CC(=O)O)C(=O)NCC(=O)NCC(=O)NCC(=O)N[C@@H](CCCNC(=N)N)C(=O)N[C@@H](CCCNC(=N)N)C(=O)N[C@@H](CCCNC(=N)N)C(=O)N[C@@H](CCCNC(=N)N)C(=O)N[C@@H](CCCNC(=N)N)C(=O)N[C@@H](CCCNC(=N)N)C(N)=O", "target": "Vitamin D3 receptor (VDR, Homo sapiens, UniProt P11473)", "assay": "reporter gene, antagonist, dual-luciferase", "test system": "MCF7", "conditions": "16 h, together with: calcitriol 30 nM", "IC50": "> 30 µM"}
{"SMILES": "CC(C)C[C@H](NC(=O)[C@H](CC(N)=O)NC(=O)[C@@H](NC(=O)[C@H](Cc1ccccc1)NC(=O)[C@H](CC(C)C)NC(=O)[C@@H]1CCCN1C(=O)[C@H](C)NC(=O)[C@@H](N)Cc1ccccc1)[C@@H](C)O)C(=O)O", "target": "H-2 class I histocompatibility antigen, K-B alpha chain, 24 (H2-K1, Mus musculus, UniProt P01901)", "assay": "peptide binding, competitor", "conditions": "2 d, room temperature, together with: radiolabelled peptide", "IC50": "< 0.0005 µM"}
{"SMILES": "N#Cc1cn([C@@H]2O[C@H](CSCC[C@H](N)C(=O)O)[C@@H](O)[C@H]2O)c2ncnc(N)c12", "target": "RNA 5'-monophosphate methyltransferase (BCDIN3D, Homo sapiens, UniProt Q7Z5W3)", "assay": "enzyme activity, inhibitor, radiometric", "IC50": "0.03 µM"}
{"SMILES": "COc1ccc2nc(C)cc(OCC(=O)Nc3ccccc3OC)c2c1", "target": "Cytochrome P450 2C19 (CYP2C19, Homo sapiens, UniProt P33261)", "assay": "inhibitor", "IC50": "2 µM"}
{"SMILES": "CC(=O)SC[C@@H](C)C(=O)Nc1ccccc1-c1nn[nH]n1", "target": "blaNDM-1", "assay": "enzyme activity, inhibitor, fluorescence", "conditions": "with preincubation", "IC50": "30.2 µM"}
{"SMILES": "CNCP(C)(=O)O", "target": "Urease subunit alpha, with UreA, UreB (ureC, Proteus mirabilis, UniProt P17086)", "assay": "whole-cell urease activity, inhibitor", "conditions": "15 min preincubation, pH 5.5, 37 °C, together with: 5 mM urea", "IC50": "36 ± 3 µM"}
{"SMILES": "CC[C@H](C)[C@@H]1NC(=O)[C@H](Cc2ccc(O)cc2)NC(=O)CSC[C@@H](C(=O)NCC(N)=O)NC(=O)[C@H](C(C)C)NC(=O)[C@H](CC(N)=O)NC(=O)[C@H](C(C)C)NC(=O)[C@H](CCCNC(=N)N)NC(=O)[C@H](C)NC(=O)[C@H](Cc2ccc(O)cc2)NC(=O)[C@H](Cc2ccc(O)cc2)NC(=O)CNC(=O)[C@@H]2CCCN2C(=O)[C@H](CCC(=O)O)NC(=O)[C@H](CC(C)C)NC(=O)[C@H]([C@@H](C)CC)NC(=O)[C@H](Cc2ccccc2)NC(=O)[C@H](Cc2ccc(O)cc2)NC1=O", "target": "Nicotinamide N-methyltransferase (NNMT, Homo sapiens, UniProt P40261)", "assay": "enzyme activity, inhibitor, mass spectrometry", "IC50": "1.11 µM"}
{"SMILES": "CCCCn1nnc(-c2cccc(NC(=O)[C@H](C)CS)c2)n1", "target": "blaNDM-1", "assay": "enzyme activity, inhibitor, fluorescence", "conditions": "with preincubation", "IC50": "2.65 µM"}
{"SMILES": "CC(C)C[C@H](NC(=O)[C@H](C)NC(=O)[C@H](CO)NC(=O)[C@H](CC(=O)O)NC(=O)[C@H](CCC(=O)O)NC(=O)[C@@H]1CCCN1C(=O)[C@H](CC(=O)O)NC(=O)[C@H](CCC(=O)O)NC(=O)[C@@H]1CCCN1)C(=O)N[C@@H](CC(C)C)C(=O)N[C@@H](CCC(=O)O)C(=O)N[C@@H](CC(=O)O)C(=O)O", "target": "HLA-DRA/HLA-DRB3 (Homo sapiens, UniProt P01903+P79483)", "assay": "binding, competition binding", "test system": "purified HLA-DR", "conditions": "48 h, together with: radiolabelled probe peptide 0.1-1 nM", "IC50": "> 5 µM"}
{"SMILES": "CC[C@@H]1C(=O)N(C)c2cnc(Oc3ccc(C(=O)NCCCC[C@H](NC(=O)COCCOCCNC(=O)COCCOCCNC(=O)COCCOCCNC(=O)COCCOCCNC(=O)[C@@H](NC(=O)[C@H](CO)NC(=O)[C@H](Cc4cncn4CCCCCCCCc4ccccc4)NC(=O)[C@H](CC(C)C)NC(=O)[C@@H]4CCCN4C(C)=O)[C@@H](C)OP(=O)(O)O)C(N)=O)cc3OC)nc2N1CC(C)C", "target": "Serine/threonine-protein kinase PLK1 (PLK1, Homo sapiens, UniProt P53350)", "assay": "enzyme activity, inhibitor, FRET", "IC50": "> 10 µM"}
{"SMILES": "C/C=C1/CN2CCc3c([nH]c4ccccc34)[C@@H]2C[C@@H]1/C(=C\\OC)C(=O)OC", "target": "5-hydroxytryptamine receptor 2B (HTR2B, Homo sapiens, UniProt P41595)", "assay": "ligand displacement, radioligand", "conditions": "cell membranes", "IC50": "0.191 µM"}
{"SMILES": "COC(=O)C1CN1S(=O)(=O)c1ccc(C)cc1F (centres unmarked)", "target": "Protein disulfide-isomerase A3 (PDIA3, Homo sapiens, UniProt P30101)", "assay": "enzyme activity, inhibitor, absorbance", "conditions": "pH 7.6", "IC50": "> 200 µM"}
{"SMILES": "NC[C@@H]1O[C@H](O[C@H]2[C@@H](O)[C@H](O[C@@H]3[C@@H](O)[C@H](N)C[C@H](N)[C@H]3O[C@H]3O[C@H](CN)[C@@H](O)[C@H](O)[C@H]3N)O[C@@H]2Cn2cc(CCCc3cn(C[C@H]4O[C@@H](O[C@@H]5[C@@H](O)[C@H](N)C[C@H](N)[C@H]5O[C@H]5O[C@H](CN)[C@@H](O)[C@H](O)[C@H]5N)[C@H](O)[C@@H]4O[C@H]4O[C@@H](CN)[C@@H](O)[C@H](O)[C@H]4N)nn3)nn2)[C@H](N)[C@@H](O)[C@@H]1O", "target": "HIV-1 TAR RNA", "assay": "Tat peptide binding, FRET competition", "conditions": "pH 7.4, 25 °C", "IC50": "0.06 ± 0.008 µM"}
{"SMILES": "C#CCCC(=O)N[C@H]1CSCc2ccc(cc2)CSCCNC(=O)[C@H](CCC(=O)O)NC(=O)[C@H](CCC(=O)O)NC(=O)[C@H](Cc2ccccc2)NC(=O)[C@@H]2CCCN2C(=O)[C@H](CC(N)=O)NC1=O", "target": "EH domain-containing protein 1, EH domain (Homo sapiens, UniProt Q9H4M9)", "IC50": "38.9 ± 7.6 µM"}
{"SMILES": "C[C@H](N)C(=O)N[C@@H](Cc1ccccc1)C(=O)N[C@@H](CCC(=O)O)C(=O)N1CCC[C@H]1C(=O)O", "target": "DPP4", "assay": "enzyme activity, inhibitor, absorbance", "IC50": "396 µM"}
{"SMILES": "CC(C)C[C@H](NC(=O)[C@@H](N)CCCCN)C(=O)NCC(=O)NCC(=O)NCC(=O)N[C@@H](CCC(N)=O)C(=O)N[C@@H](Cc1ccc(O)cc1)C(=O)NCC(=O)N[C@@H](CCC(=O)O)C(=O)O", "target": "HLA class I histocompatibility antigen, A alpha chain, allele A*31:01 (Homo sapiens, UniProt P04439)", "assay": "peptide binding, competitive radioligand binding", "conditions": "room temperature, HLA-A*3101 allele, together with: radiolabelled probe peptide", "IC50": "9.87 µM"}
{"SMILES": "CC(=O)N[C@@H](CCCNC(=N)N)C(=O)N[C@@H](Cc1ccc(O)cc1)C(=O)N[C@H]1CCCNC(=N)NC(=O)NCCCCNC(=O)[C@H](Cc2ccc(O)cc2)NC(=O)[C@H](CCCNC(=N)N)NC(=O)[C@H](CC(C)C)NC1=O", "target": "Neuropeptide Y receptor type 4 (NPY4R, Homo sapiens, UniProt P50391)", "assay": "β-arrestin 2 recruitment, antagonist", "test system": "HEK293T", "conditions": "together with: 3 nM human pancreatic polypeptide", "IC50": "3.94 ± 0.66 µM"}
{"SMILES": "CC[N+](CC)(CC)CC", "target": "Potassium channel protein kcv, three L70A, one L70Y (A250R, Paramecium bursaria Chlorella virus 1, UniProt Q84568, L70A/L70Y)", "IC50": "16000 ± 3000 µM"}
{"SMILES": "CC(=O)C(NC(=O)c1ccccc1-c1ccc(C(F)(F)F)cc1)c1cccc(C(F)(F)F)c1 (centres unmarked)", "target": "NKG2-D type II integral membrane protein, with MICA (KLRK1, Homo sapiens, UniProt P26718)", "assay": "ligand binding, inhibitor, TR-FRET", "test system": "HEK293 expressing NKG2D and DAP10", "conditions": "together with: MICA-Alexa647", "IC50": "> 20 µM"}
{"SMILES": "COc1nn(-c2ccc(NC(=O)CON)cc2)c(=O)o1", "target": "Fluorophosphonate-binding hydrolase B (Staphylococcus aureus, UniProt Q2FV90)", "IC50": "36 µM and > 20 µM"}
{"note": "Excerpt of the above:"}
{"SMILES": "CC(=O)C(NC(=O)c1ccccc1-c1ccc(C(F)(F)F)cc1)c1cccc(C(F)(F)F)c1 (centres unmarked)", "target": "NKG2-D type II integral membrane protein, with MICA (KLRK1, Homo sapiens, UniProt P26718)", "assay": "ligand binding, inhibitor, TR-FRET", "test system": "HEK293 expressing NKG2D and DAP10", "conditions": "together with: MICA-Alexa647", "IC50": "> 20 µM"}
{"SMILES": "COC(=O)C1CN1S(=O)(=O)c1ccc(C)cc1F (centres unmarked)", "target": "Protein disulfide-isomerase A3 (PDIA3, Homo sapiens, UniProt P30101)", "assay": "enzyme activity, inhibitor, absorbance", "conditions": "pH 7.6", "IC50": "> 200 µM"}
{"SMILES": "CC(C)C[C@H](NC(=O)[C@H](C)NC(=O)[C@H](CO)NC(=O)[C@H](CC(=O)O)NC(=O)[C@H](CCC(=O)O)NC(=O)[C@@H]1CCCN1C(=O)[C@H](CC(=O)O)NC(=O)[C@H](CCC(=O)O)NC(=O)[C@@H]1CCCN1)C(=O)N[C@@H](CC(C)C)C(=O)N[C@@H](CCC(=O)O)C(=O)N[C@@H](CC(=O)O)C(=O)O", "target": "HLA-DRA/HLA-DRB3 (Homo sapiens, UniProt P01903+P79483)", "assay": "binding, competition binding", "test system": "purified HLA-DR", "conditions": "48 h, together with: radiolabelled probe peptide 0.1-1 nM", "IC50": "> 5 µM"}
